# Assay results pooled from the literature.
# Parts stem from different laboratories: compare values within a part only. Several values in a cell are separate wells, animals, samples, runs or records. ± gives the spread as reported.
# Sequence of UniProt P06213 (whole entry, looked up): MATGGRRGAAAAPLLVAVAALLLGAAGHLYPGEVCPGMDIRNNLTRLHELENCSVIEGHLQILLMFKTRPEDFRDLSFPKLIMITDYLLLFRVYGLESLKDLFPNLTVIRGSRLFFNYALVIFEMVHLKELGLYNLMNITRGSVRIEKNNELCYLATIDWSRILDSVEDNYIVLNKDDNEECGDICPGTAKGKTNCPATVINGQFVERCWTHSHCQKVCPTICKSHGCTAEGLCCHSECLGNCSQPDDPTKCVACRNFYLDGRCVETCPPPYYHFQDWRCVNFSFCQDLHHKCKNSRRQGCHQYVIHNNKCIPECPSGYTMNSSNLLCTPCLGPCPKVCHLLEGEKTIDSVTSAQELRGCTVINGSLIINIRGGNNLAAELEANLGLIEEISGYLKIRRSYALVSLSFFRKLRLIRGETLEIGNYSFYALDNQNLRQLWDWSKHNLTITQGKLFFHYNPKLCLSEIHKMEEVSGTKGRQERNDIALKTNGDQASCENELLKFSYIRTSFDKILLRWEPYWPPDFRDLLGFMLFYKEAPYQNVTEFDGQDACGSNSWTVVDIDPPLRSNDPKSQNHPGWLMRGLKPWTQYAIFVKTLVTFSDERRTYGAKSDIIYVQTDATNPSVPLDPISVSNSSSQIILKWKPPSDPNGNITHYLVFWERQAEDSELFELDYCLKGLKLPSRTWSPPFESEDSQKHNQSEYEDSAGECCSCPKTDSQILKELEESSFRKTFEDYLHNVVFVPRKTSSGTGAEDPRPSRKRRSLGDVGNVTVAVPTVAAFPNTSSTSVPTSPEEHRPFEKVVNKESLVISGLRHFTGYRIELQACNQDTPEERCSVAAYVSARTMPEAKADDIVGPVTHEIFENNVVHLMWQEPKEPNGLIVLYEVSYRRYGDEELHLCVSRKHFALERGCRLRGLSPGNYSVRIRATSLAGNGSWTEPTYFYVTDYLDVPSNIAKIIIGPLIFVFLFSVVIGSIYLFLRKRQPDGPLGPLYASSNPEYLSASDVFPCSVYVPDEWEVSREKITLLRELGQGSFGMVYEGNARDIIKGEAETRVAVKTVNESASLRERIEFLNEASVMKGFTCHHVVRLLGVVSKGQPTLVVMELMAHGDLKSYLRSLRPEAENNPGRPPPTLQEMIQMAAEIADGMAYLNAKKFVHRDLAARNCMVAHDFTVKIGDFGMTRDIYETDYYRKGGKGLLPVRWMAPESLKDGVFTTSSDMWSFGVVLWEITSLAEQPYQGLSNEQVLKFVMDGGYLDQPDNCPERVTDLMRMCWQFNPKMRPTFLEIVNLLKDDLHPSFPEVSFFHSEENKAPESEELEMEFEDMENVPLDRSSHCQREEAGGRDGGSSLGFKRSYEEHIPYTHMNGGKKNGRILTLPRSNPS
# Sequence of UniProt P11802 (whole entry, looked up): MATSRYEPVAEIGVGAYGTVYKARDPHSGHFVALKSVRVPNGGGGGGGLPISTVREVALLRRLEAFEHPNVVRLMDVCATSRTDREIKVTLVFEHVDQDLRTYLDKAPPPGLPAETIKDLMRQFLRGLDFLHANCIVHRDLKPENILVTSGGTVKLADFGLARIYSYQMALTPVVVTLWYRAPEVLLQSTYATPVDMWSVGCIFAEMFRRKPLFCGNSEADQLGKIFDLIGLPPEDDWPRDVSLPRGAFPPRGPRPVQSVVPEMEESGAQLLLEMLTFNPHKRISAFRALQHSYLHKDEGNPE

# Sample 1 — cell line: AsPC-1; technique: in-cell ELISA
# Compound: Cc1ncsc1-c1ccc(C(CO)NC(=O)C2CC(O)CN2C(=O)C(NC(=O)c2ccc(COc3c(-c4c(C)c(F)cc5[nH]ncc45)c(C4CC4)cc4c(N5CC6CC5CN6)nc(OC5CCOCC5)nc34)cc2)C(C)C)cc1 (stereo not drawn)
conditions,phospho-ERK1/2 level
"3 nM, individual replicates",92% and 96.8% and 96.2% and 91% and 95.3%
"1 nM, per-experiment values",96.3% and 98.1% and 90.2%
"1 µM, individual replicates",4.89% and 5.62% and 4.53% and 10.7% and 2.71%
"3 µM, per-experiment values",3.68% and 10.4% and 11.5%
"100 nM, individual replicates",37.1% and 34.1% and 29.6% and 50.2% and 32.7% and 56.6%
"10 nM, per-experiment values",93.7% and 87.1% and 94%
"300 pM, individual replicates",100% and 104% and 99.1% and 96.7% and 102% and 96.3%
"10 µM, individual replicates",10.9% and 5.68% and 6.16% and 16.7% and 7.14% and 5.87%

# Sample 2 — action: inhibitor; technique: FLIPR membrane potential; cells: CHO-BC cells; concentration: 30 µM; together with: L-leucine 1.5 mM; baseline: cinromide
# Target: Sodium-dependent neutral amino acid transporter B(0)AT1 (SLC6A19, Homo sapiens, UniProt Q695T7)
# Sequence of UniProt Q695T7 (whole entry, looked up): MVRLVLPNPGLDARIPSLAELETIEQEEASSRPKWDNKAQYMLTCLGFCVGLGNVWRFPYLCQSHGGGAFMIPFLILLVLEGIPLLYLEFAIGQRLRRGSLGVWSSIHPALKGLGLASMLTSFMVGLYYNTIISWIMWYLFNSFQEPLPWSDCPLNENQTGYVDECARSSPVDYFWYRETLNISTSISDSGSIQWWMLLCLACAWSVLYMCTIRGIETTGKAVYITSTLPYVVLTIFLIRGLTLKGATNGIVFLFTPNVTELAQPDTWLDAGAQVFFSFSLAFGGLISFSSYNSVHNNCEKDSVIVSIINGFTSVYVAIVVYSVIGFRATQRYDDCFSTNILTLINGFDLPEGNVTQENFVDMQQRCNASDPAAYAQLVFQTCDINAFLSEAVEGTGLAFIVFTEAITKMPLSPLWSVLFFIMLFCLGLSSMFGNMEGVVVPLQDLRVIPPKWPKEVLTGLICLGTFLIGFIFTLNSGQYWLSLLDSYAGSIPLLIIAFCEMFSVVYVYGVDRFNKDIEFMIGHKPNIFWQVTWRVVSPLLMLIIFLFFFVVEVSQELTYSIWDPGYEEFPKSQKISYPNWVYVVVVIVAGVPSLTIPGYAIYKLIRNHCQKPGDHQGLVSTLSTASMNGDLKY
Structure (SMILES),activity
Cc1cc(NCC(=O)NC(C)C)cc(C)c1Cl,-2 ± 1%
Cc1cc(Cl)ccc1OCC(=O)NC(C)C,82 ± 7%
CCNC(=O)COc1cc(C)c(Cl)c(C)c1,3 ± 1%
CON(C)C(=O)COc1cc(C)c(Cl)c(C)c1,109 ± 10%
Cc1cc(OCC(=O)NC(C)C)cc(C)c1Br,11 ± 2%
Cc1cc(OCC(=O)NC(C)C)ccc1Cl,8 ± 5%

# Sample 3 — concentration: 1 µM
# Structure (SMILES): CC[C@@]1(c2ccccc2)C2=C(CC(C)(C)CC2=O)Nc2n[nH]cc21
target,assay,how to read,remaining binding
"Tyrosine-protein kinase ABL1, phosphorylated (ABL1, Homo sapiens, UniProt P00519)","kinase binding, KINOMEscan",baseline: DMSO control,80%
"MAP4K2 (Homo sapiens, UniProt Q12851)","binding, competition with immobilised ligand",,100%
"BRAF (Homo sapiens, UniProt P15056)","kinase binding, KINOMEscan",baseline: DMSO control,100%
"Aurora kinase B (AURKB, Homo sapiens, UniProt Q96GD4)","binding, competition with immobilised ligand",,89%
"Insulin receptor (INSR, Homo sapiens, UniProt P06213)","kinase binding, KINOMEscan",baseline: DMSO control,100%
"PNCK (Homo sapiens, UniProt Q6P2M8)","binding, competition with immobilised ligand",,100%
"Ribosomal protein S6 kinase alpha-4, N-terminal kinase domain (RPS6KA4, Homo sapiens, UniProt O75676)","binding, competition with immobilised ligand",,100%
"TXK (Homo sapiens, UniProt P42681)","binding, competition with immobilised ligand",,100%
"STK3 (Homo sapiens, UniProt Q13188)","binding, competition with immobilised ligand",,100%
"Tyrosine-protein kinase ABL1, non-phosphorylated (ABL1, Homo sapiens, UniProt P00519, F317L)","kinase binding, KINOMEscan",baseline: DMSO control,100%
"RET (Homo sapiens, UniProt P07949)","binding, competition with immobilised ligand",,72%
"CLK2 (Homo sapiens, UniProt P49760)","binding, competition with immobilised ligand",,100%
"GRK4 (Homo sapiens, UniProt P32298)","binding, competition with immobilised ligand",,99%
"TSSK1B (Homo sapiens, UniProt Q9BXA7)","binding, competition with immobilised ligand",,95%
"RIOK3 (Homo sapiens, UniProt O14730)","binding, competition with immobilised ligand",,100%
"ERBB2 (Homo sapiens, UniProt P04626)","binding, competition with immobilised ligand",,91%
"Myosin-IIIb (MYO3B, Homo sapiens, UniProt Q8WXR4)","binding, competition with immobilised ligand",,100%
"CAMKK2 (Homo sapiens, UniProt Q96RR4)","kinase binding, KINOMEscan",baseline: DMSO control,91%

# Sample 4 — effect on: binding; technique: HTRF
# Structure (SMILES): Cc1ncc(-c2cc3c(C(F)(F)F)c(-c4c(C)ccc(O)c4C)cnc3[nH]2)cn1
# Target: Membrane-associated tyrosine- and threonine-specific cdc2-inhibitory kinase (PKMYT1, Homo sapiens, UniProt Q99640)
# Construct (Q99640 1-499): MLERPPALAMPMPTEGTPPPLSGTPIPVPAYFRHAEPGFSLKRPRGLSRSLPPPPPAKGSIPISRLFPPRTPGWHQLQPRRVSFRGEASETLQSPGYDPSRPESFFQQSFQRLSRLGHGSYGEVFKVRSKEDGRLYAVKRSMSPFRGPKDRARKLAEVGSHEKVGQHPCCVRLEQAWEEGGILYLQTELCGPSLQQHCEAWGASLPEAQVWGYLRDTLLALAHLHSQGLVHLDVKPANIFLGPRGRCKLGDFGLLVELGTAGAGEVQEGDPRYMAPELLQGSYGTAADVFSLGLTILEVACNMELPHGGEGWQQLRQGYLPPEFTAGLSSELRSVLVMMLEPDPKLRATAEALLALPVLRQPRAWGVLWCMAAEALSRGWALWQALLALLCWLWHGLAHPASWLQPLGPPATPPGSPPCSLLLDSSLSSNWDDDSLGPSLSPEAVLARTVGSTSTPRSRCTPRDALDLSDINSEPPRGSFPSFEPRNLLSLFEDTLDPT
conditions,inhibition
123.46 nM,94% and 93.3%
370.37 nM,96.4% and 96.5%
4.57 nM,40.4% and 39.7%
3333.33 nM,102% and 103%
10000 nM,107%
1111.11 nM,98.5% and 99%
1.52 nM,14.6% and 16.1%
0.51 nM,-7.38% and -4.82%

# Sample 5
# SMILES: COCC1CC2C(CCC3C(O)CCC32)c2ccc(O)cc21 (stereo not drawn)
cell line,assay,conditions,how to read,log2 fold change
PANC-1,"DNA microarray, refers to: UBB mRNA",100 µM,baseline: control,-0.721
A549,"microarray, refers to: OLIG2",100 µM,baseline: untreated,0
SK-OV-3,"DNA microarray, refers to: C6",25 µM,baseline: untreated cells,7.37
SK-OV-3,"microarray, refers to: AURKA",25 µM,baseline: untreated,0.0108
A549,"DNA microarray, refers to: C6",100 µM,baseline: untreated cells,7.37
PANC-1,"DNA microarray, refers to: GINS1",100 µM,baseline: untreated cells,0.0802
A549,"microarray, refers to: CDC25B",25 µM,baseline: untreated,-0.13
A549,"microarray, refers to: AURKA",100 µM,baseline: untreated,-0.0815
A549,"microarray, refers to: ACTB",25 µM,baseline: untreated,-0.302
SK-OV-3,"DNA microarray, refers to: CCL1",25 µM,baseline: untreated,2.43
PANC-1,"microarray, refers to: SPC25",25 µM,baseline: untreated,0.437
PANC-1,"DNA microarray, refers to: KIF20A",25 µM,baseline: untreated cells,0.68 and 0.558 and 0.568 and 0.613 and 0.579

# Sample 6 — effect on: kinase activity
# SMILES: CNc1ncc2cc(-c3cc(OC)cc(OC)c3Cl)c(=O)n(CCc3ccc(NC(=O)C(C#N)=CC(C)(C)N4CCOCC4)cc3)c2n1
target,conditions,inhibition
"AKT3 (Homo sapiens, UniProt Q9Y243)",1 µM,2%
"CDK1 (Homo sapiens, UniProt P06493)",1 µM,4%
"PIK3CB (Homo sapiens, UniProt P42338)",0.1 µM,-6%
"CAMK4 (Homo sapiens, UniProt Q16566)",0.1 µM,4%
"MAPKAPK5 (Homo sapiens, UniProt Q8IW41)",1 µM,2%
"RPS6KB1 (Homo sapiens, UniProt P23443)",1 µM,0%
"PLK2 (Homo sapiens, UniProt Q9NYY3)",1 µM,8%
"EPHA5 (Homo sapiens, UniProt P54756)",0.1 µM,8%
"BLK (Homo sapiens, UniProt P51451)",0.1 µM,-1%
"CLK1 (Homo sapiens, UniProt P49759)",1 µM,-4%
"ERBB2 (Homo sapiens, UniProt P04626)",1 µM,-12%
"SGK2 (Homo sapiens, UniProt Q9HBY8)",1 µM,4%
"CLK2 (Homo sapiens, UniProt P49760)",0.1 µM,-5%
"GRK7 (Homo sapiens, UniProt Q8WTQ7)",0.1 µM,10%
"Cyclin-dependent kinase 4, with cyclin D (CDK4, Homo sapiens, UniProt P11802)",1 µM,30%
"HIPK3 (Homo sapiens, UniProt Q9H422)",1 µM,-1%
"RPS6KA2 (Homo sapiens, UniProt Q15349)",1 µM,-1%
"ROS1 (Homo sapiens, UniProt P08922)",1 µM,3%

# Sample 7 — effect on: binding; technique: competition with immobilised ligand; concentration: 1 µM
# Structure (SMILES): COc1cc(-c2nc3ccc(C(=O)NCCCN4CCN(c5cccc(C)c5C)CC4)cc3n2C2CCC2)cc(OC)c1OC
target,remaining binding [%]
"PDPK1 (Homo sapiens, UniProt O15530)",80
"Tyrosine-protein kinase ABL1, non-phosphorylated (ABL1, Homo sapiens, UniProt P00519, Q252H)",81
"PRKACA (Homo sapiens, UniProt P17612)",94
"BRAF (Homo sapiens, UniProt P15056)",97
"YES1 (Homo sapiens, UniProt P07947)",67
"TYRO3 (Homo sapiens, UniProt Q06418)",97
"CDK3 (Homo sapiens, UniProt Q00526)",92
"EGFR (Homo sapiens, UniProt P00533, G719S)",93
"Non-receptor tyrosine-protein kinase TYK2, JH1 (TYK2, Homo sapiens, UniProt P29597)",100
"TIE1 (Homo sapiens, UniProt P35590)",91
"EPHA7 (Homo sapiens, UniProt Q15375)",100
"MAPK12 (Homo sapiens, UniProt P53778)",78
"WNK1 (Homo sapiens, UniProt Q9H4A3)",97
"STK38L (Homo sapiens, UniProt Q9Y2H1)",74
"FLT3 (Homo sapiens, UniProt P36888, D835H)",86
"ITK (Homo sapiens, UniProt Q08881)",96
"Cyclin-dependent kinase 4, with cyclin D1 (CDK4, Homo sapiens, UniProt P11802)",93
"EPHB3 (Homo sapiens, UniProt P54753)",93
"PRKG1 (Homo sapiens, UniProt Q13976)",100
"PRKD2 (Homo sapiens, UniProt Q9BZL6)",100
"TBK1 (Homo sapiens, UniProt Q9UHD2)",99
"CDK5 (Homo sapiens, UniProt Q00535)",95
"Insulin receptor (INSR, Homo sapiens, UniProt P06213)",89

# Sample 8 — effect on: thermal unfolding; technique: differential scanning fluorimetry; concentration: 5.5 µM; reading: higher = more unfolded
# SMILES: C[C@@H]1CN(c2ccc(-c3cc(C(=O)NCCOCCOCCOCCOCCNC(=O)Cn4cc(-c5[nH]cc(C(=O)N[C@@H](CC(N)=O)c6ccc(F)c(Cl)c6)c5-c5ccc(Cl)cc5F)cn4)ccc3F)cc2NC(=O)c2c[nH]c(=O)cc2C(F)(F)F)C[C@H](C)N1C
# DCAF1: DDB1- and CUL4-associated factor 1 (DCAF1, Homo sapiens, UniProt Q9Y4B6)
# Sequence of UniProt Q9Y4B6 (whole entry, looked up): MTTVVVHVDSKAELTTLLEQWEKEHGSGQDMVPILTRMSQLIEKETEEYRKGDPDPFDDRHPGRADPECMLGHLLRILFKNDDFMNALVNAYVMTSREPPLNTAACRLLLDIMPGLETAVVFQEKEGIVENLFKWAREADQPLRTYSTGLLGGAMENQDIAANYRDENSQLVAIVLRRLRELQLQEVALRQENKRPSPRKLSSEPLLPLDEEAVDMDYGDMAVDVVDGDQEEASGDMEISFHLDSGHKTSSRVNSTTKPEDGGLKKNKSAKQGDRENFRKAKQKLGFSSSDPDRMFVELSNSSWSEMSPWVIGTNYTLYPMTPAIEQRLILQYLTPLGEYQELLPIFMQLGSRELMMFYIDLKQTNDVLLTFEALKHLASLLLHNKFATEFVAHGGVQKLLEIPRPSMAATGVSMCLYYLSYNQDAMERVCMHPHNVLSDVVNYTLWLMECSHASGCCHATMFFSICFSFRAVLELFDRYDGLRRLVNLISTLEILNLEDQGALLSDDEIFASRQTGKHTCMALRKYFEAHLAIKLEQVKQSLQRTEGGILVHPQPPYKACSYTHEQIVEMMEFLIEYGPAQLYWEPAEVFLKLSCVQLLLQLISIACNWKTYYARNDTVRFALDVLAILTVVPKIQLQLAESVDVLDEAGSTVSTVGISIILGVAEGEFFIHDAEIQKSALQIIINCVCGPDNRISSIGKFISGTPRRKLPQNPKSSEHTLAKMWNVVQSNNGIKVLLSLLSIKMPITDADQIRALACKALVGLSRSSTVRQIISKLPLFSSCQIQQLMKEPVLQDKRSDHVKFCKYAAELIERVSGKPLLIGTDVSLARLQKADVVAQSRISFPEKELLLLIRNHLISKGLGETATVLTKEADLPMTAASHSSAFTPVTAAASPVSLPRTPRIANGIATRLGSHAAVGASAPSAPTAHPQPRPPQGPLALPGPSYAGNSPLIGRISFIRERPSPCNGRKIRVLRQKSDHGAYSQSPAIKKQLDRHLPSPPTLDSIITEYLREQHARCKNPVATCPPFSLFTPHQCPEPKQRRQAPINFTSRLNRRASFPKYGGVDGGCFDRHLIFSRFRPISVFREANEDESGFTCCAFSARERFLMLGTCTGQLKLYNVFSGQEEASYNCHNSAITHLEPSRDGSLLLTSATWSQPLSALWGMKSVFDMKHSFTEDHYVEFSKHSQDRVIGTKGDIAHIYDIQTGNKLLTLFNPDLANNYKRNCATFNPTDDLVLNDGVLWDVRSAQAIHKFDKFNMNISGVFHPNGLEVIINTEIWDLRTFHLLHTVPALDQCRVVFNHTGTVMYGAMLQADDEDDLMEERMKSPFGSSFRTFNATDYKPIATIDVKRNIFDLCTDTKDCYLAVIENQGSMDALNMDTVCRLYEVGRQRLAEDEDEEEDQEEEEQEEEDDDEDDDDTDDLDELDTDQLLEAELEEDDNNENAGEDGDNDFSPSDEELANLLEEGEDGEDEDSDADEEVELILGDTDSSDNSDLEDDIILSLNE
# WDR5: WD repeat-containing protein 5 (WDR5, Homo sapiens, UniProt P61964)
target,conditions,SYPRO Orange fluorescence
DCAF1,64.61 °C,55300 a.u.
DCAF1,90.21 °C,34900 a.u.
WDR5,34 °C,14400 a.u.
WDR5,49.2 °C,14500 a.u.
DCAF1,58.41 °C,30500 a.u.
DCAF1,76.41 °C,47800 a.u.
DCAF1,59.81 °C,36900 a.u.
WDR5,76.01 °C,12900 a.u.
DCAF1,33.4 °C,8460 a.u.
DCAF1,30.8 °C,8320 a.u.
WDR5,80.41 °C,24600 a.u.

# Other studies, line by line
# KRAS: GTPase KRas (KRAS, Homo sapiens, UniProt P01116)
Structure (SMILES),target,assay,test system,conditions,quantity,result
CN1CCC[C@H]1COc1nc2c(c(N3CCN(C(=O)C4CC4)[C@@H](CC#N)C3)n1)CCN(c1cccc3cccc(Cl)c13)C2,"GTPase KRas (KRAS, Homo sapiens, UniProt P01116, Q61H)","target engagement in cells, BRET",,,IC50,3.3 µM
CN1CCC[C@H]1COc1nc2c(c(N3CCN(C(=O)C(F)(F)F)[C@@H](CC#N)C3)n1)CCN(c1cccc3cccc(Cl)c13)C2,KRAS,"target engagement in cells, BRET",,,IC50,3.2 µM
C=CC(=O)N1CCN(c2nc(OC[C@@H]3CCCN3C)nc3c2CCN(c2cccc4cccc(C)c24)C3)C[C@@H]1CC#N,KRAS,"target engagement in cells, BRET",,,IC50,0.62 µM
C#Cc1cccc2cc(O)cc(-c3ncc4c(N5CC6CCC(C5)N6)nc(OCC56CCCN5CCC6)nc4c3F)c12,"GTPase HRas (HRAS, Homo sapiens, UniProt P01112)","binding, competitor, NanoBRET",HEK293,13.7 nM,normalized BRET,103% and 113% and 95.6% and 106%
